Measurements collected from several papers.
Parts stem from different laboratories: compare values within a part only.
Chain of UniProt O00238 (whole entry, looked up): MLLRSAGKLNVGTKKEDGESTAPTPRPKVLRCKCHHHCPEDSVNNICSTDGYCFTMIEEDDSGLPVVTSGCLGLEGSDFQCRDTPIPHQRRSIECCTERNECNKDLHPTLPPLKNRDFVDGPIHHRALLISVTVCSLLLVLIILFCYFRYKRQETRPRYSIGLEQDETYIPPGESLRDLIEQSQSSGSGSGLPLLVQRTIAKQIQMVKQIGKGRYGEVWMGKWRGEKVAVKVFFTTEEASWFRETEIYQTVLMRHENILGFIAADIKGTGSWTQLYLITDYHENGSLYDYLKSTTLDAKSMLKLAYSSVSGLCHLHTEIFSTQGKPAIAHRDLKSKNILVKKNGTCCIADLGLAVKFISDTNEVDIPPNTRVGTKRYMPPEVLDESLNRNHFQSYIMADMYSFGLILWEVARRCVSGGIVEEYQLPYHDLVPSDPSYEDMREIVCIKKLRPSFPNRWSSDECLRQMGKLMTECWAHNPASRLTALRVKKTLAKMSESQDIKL
Chain of UniProt P41743 (whole entry, looked up): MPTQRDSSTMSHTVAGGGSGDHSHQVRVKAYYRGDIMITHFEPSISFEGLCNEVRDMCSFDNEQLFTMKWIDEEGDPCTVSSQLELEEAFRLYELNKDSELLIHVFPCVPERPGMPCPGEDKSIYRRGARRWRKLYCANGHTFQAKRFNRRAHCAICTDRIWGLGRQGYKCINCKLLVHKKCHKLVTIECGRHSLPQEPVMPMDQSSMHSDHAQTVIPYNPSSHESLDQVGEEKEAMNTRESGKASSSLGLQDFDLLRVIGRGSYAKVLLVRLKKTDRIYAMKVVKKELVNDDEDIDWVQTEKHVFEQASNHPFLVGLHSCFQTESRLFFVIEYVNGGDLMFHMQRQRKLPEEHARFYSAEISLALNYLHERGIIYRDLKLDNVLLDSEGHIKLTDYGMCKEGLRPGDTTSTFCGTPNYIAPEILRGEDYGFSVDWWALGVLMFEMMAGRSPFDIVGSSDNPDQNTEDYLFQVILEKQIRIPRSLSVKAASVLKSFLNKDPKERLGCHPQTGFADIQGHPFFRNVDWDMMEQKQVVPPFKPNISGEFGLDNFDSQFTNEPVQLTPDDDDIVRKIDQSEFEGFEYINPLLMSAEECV
Chain of UniProt P30291 (whole entry, looked up): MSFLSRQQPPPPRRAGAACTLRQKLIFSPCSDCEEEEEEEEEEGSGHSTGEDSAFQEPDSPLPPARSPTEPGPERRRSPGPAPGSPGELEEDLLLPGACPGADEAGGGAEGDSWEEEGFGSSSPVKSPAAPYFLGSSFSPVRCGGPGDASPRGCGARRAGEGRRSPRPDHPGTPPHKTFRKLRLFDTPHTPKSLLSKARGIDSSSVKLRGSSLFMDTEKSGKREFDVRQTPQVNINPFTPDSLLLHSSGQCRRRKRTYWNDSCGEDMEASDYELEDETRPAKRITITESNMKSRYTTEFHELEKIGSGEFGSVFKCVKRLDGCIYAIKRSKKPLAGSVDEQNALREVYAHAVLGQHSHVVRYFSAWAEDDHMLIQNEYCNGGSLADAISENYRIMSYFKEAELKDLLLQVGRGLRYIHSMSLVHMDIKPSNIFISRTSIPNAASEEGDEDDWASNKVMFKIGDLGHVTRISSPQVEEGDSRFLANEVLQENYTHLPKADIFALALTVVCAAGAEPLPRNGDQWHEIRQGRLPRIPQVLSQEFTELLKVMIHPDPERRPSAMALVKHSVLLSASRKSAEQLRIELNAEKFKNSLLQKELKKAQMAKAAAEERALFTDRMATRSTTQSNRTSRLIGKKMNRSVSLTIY
Chain of UniProt Q5S007 (whole entry, looked up): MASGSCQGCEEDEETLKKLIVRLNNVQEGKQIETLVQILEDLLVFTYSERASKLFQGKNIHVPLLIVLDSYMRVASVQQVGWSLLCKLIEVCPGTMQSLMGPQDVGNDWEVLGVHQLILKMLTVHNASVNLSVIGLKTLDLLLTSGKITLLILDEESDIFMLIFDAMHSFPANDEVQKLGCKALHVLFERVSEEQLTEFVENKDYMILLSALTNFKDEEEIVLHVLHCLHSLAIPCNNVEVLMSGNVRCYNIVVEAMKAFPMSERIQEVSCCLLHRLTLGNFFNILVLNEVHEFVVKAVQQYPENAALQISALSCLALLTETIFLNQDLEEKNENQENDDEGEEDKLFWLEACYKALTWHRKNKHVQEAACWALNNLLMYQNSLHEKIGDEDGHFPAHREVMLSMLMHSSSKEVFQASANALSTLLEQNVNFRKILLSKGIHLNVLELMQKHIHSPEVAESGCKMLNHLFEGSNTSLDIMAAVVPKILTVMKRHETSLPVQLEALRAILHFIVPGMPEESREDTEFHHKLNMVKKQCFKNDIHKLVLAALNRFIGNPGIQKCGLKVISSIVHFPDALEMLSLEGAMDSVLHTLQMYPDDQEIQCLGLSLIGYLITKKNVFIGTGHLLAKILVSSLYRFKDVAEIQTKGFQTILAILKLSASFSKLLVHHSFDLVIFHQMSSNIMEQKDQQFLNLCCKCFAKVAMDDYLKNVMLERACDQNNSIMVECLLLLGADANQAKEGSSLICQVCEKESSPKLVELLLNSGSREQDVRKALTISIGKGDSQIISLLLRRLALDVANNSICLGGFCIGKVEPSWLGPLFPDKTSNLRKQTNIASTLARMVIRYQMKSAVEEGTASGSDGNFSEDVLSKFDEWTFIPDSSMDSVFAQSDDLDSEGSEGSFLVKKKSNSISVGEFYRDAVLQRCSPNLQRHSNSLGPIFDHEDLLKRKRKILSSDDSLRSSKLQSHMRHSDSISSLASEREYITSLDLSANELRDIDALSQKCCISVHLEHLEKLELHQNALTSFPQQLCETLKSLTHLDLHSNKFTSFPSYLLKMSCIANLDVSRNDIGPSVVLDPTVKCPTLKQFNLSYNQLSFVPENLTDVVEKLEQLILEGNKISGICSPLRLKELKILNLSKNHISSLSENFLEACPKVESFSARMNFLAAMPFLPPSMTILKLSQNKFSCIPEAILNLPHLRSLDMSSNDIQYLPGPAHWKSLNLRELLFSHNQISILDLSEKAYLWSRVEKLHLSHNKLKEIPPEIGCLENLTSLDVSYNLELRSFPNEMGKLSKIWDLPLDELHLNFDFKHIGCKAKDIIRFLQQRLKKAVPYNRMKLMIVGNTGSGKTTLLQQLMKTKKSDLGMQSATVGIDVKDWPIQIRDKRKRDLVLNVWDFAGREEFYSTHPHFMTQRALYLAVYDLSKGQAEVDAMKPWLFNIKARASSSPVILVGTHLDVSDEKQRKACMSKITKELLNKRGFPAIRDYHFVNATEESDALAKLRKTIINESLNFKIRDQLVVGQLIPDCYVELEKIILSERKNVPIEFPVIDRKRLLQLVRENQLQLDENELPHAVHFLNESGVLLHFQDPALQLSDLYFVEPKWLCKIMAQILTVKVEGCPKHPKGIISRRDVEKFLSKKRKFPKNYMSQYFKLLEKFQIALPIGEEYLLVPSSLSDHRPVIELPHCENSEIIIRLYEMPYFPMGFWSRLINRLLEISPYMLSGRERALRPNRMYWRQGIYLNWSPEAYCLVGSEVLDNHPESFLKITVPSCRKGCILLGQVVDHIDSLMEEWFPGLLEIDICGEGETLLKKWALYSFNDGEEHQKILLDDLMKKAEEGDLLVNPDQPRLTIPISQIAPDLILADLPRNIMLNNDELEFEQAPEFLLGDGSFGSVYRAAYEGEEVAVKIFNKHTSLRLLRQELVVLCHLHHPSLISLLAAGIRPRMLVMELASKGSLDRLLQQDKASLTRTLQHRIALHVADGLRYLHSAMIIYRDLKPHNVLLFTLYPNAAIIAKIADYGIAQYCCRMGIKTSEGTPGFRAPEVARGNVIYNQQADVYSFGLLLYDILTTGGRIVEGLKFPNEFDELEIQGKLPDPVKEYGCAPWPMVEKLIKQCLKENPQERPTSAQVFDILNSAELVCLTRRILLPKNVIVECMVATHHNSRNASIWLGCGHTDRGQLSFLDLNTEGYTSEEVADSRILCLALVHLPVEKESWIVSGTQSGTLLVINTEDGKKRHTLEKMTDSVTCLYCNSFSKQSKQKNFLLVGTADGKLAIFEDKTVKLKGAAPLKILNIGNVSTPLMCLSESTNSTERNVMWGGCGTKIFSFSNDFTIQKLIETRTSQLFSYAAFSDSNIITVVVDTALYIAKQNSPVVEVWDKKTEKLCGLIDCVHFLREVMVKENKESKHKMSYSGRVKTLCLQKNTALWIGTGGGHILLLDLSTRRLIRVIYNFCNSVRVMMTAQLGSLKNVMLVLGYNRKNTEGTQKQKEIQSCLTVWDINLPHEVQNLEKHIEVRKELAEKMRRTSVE
Chain of UniProt O75716 (whole entry, looked up): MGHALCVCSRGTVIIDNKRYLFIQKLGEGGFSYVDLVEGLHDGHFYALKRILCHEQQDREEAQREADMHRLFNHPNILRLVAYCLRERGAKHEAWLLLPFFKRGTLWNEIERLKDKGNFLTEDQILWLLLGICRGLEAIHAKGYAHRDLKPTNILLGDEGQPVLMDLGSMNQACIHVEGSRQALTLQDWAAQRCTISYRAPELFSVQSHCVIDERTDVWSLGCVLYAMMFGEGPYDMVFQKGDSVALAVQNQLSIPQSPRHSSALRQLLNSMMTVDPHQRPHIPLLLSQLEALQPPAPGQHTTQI
Chain of UniProt Q15208 (whole entry, looked up): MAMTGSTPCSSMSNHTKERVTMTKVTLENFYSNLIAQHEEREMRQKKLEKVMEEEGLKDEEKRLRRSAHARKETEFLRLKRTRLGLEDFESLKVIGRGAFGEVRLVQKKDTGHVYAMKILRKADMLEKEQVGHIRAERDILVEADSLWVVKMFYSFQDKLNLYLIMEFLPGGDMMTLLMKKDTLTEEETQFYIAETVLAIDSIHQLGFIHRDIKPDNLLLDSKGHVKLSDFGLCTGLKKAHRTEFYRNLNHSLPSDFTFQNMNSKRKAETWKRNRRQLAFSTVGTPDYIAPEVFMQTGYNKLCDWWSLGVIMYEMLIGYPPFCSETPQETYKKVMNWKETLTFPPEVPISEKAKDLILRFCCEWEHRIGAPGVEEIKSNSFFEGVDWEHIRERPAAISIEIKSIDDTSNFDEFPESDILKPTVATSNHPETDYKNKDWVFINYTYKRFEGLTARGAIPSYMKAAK

Sample 1
Compound: CC(C)n1cnc(-c2ccc(F)cc2)c1-c1ncc(C(=O)Nc2ccc(N3CCN(C)CC3)cc2)[nH]1
Species: idiopathic pulmonary fibrosis patients
Matrix: plasma
It gave 312 ng/mL for Cmax (oral, 60 mg once daily, week 12, arithmetic mean).
The Cmax was 102 ng/mL (30 mg once daily, week 0, median).
For 30 mg once daily, week 12, median: Cmax read 104 ng/mL.
The Cmax was 118 ng/mL (30 mg twice daily, week 12, arithmetic mean).
It gave 266 ng/mL for Cmax (oral, 60 mg once daily, week 0, arithmetic mean).
It gave 104 ng/mL for Cmax (oral, 30 mg once daily, week 0, arithmetic mean).
For 30 mg twice daily, week 12, median: Cmax read 104 ng/mL.
For 30 mg twice daily, week 0, median: Cmax read 89.6 ng/mL.

Sample 2
Structure (SMILES): Cc1noc([C@H]2C[C@@H](c3ccc(C(F)(F)F)cc3)CN(C(=O)N3CCS(=O)(=O)C3)C2)n1
Method: competition with immobilised ligand
Concentration: 1 µM
For EGFR (Homo sapiens, UniProt P00533, T790M); cell-free assay: remaining binding read 77%.
It gave 100% for remaining binding (TAOK3 (Homo sapiens, UniProt Q9H2K8); cell-free assay).
For MAP2K4 (Homo sapiens, UniProt P45985); cell-free assay: remaining binding read 100%.
It gave 100% for remaining binding (CSNK1A1L (Homo sapiens, UniProt Q8N752); cell-free assay).
For CDKL1 (Homo sapiens, UniProt Q00532); binding: remaining binding read 100%.
The remaining binding was 100% (STK16 (Homo sapiens, UniProt O75716); cell-free assay).
It gave 100% for remaining binding (WEE1 (Homo sapiens, UniProt P30291); cell-free assay).
The remaining binding was 100% (STK11 (Homo sapiens, UniProt Q15831); cell-free assay).
The remaining binding was 100% (BMPR1B (Homo sapiens, UniProt O00238); cell-free assay).
GSK3B (Homo sapiens, UniProt P49841); cell-free assay — remaining binding: 92%.
For CHUK (Homo sapiens, UniProt O15111); cell-free assay: remaining binding read 100%.
Tyrosine-protein kinase ABL1, non-phosphorylated (ABL1, Homo sapiens, UniProt P00519, F317L); cell-free assay — remaining binding: 100%.
It gave 100% for remaining binding (MAP3K15 (Homo sapiens, UniProt Q6ZN16); cell-free assay).
For MARK4 (Homo sapiens, UniProt Q96L34); cell-free assay: remaining binding read 84%.
It gave 100% for remaining binding (BMP2K (Homo sapiens, UniProt Q9NSY1); cell-free assay).
It gave 76% for remaining binding (DYRK1B (Homo sapiens, UniProt Q9Y463); cell-free assay).
The remaining binding was 92% (MAP3K6 (Homo sapiens, UniProt O95382); cell-free assay).

Sample 3
Species: mouse
Matrix: microsomes or S9
Concentration: 2 µM
Time: 0.5 h
COc1ccccc1CNC(=O)c1c(OCC2CC2)cc(=O)n2c1CCCCC2 has a remaining compound of 0.0836%.
With O=C(C1CCC1)N1CCCC1c1nc(C2CCOCC2)no1 (stereo not shown) the remaining compound was 30.4%.
The remaining compound of COc1c(C)c2c(c(OC)c1C/C=C(\C)CCC(=O)N1CCOCC1)C(=O)OC2 is reported as 0.132%.
With CCOC(=O)c1[nH]c(C)c(C(=O)Nc2n[nH]c3cc(Br)ccc23)c1C the remaining compound was 17.8%.
CC(=O)N1c2nc(-c3ccco3)nn2C2(CCCCC2)[C@@H]2CCCC[C@@H]21 has a remaining compound of 1.13%.
The remaining compound of COc1ccc2c(c1)c(=O)oc1cc(OC/C=C(/C)CCC=C(C)C)ccc12 is reported as 63.4%.
With CC(C)(CNC(=O)[C@@H]1OCC[C@@H]1Cn1cccn1)C1CCOCC1 the remaining compound was 18.4%.
COc1cc2c(Nc3cccc(Br)c3)ncnc2cc1OCC1CNCCO1 (stereo not shown) has a remaining compound of over 99.9%.
For COc1cc(C)c(S(=O)(=O)N2CCN(c3cc(-n4ccnc4C)ncn3)CC2)cc1C, the remaining compound was 1.16%.
For CCOc1cc(=O)n2c(c1C(=O)Nc1ccc3c(c1)OCO3)CCCC2, the remaining compound was 55.9%.
With COc1cc(=O)[nH]cc1C(=O)N(C)C1(Cc2ccccc2)CCCC1 the remaining compound was 0.168%.

Sample 4
SMILES: COc1cc2c(Nc3ccc(Br)cc3F)ncnc2cc1OCC1CCN(C)CC1
Effect on: enzyme activity
Mode: inhibitor
Concentration: 0.5 µM
Baseline: control
MAP2K6 (Homo sapiens, UniProt P52564) — remaining activity: 96.2%.
The remaining activity was 92.6% (MAPK12 (Homo sapiens, UniProt P53778)).
The remaining activity was 113% (LRRK2 (Homo sapiens, UniProt Q5S007)).
It gave 103% for remaining activity (PRKCD (Homo sapiens, UniProt Q05655)).
It gave 102% for remaining activity (MAP3K10 (Homo sapiens, UniProt Q02779)).
The remaining activity was 54.4% (EPHA5 (Homo sapiens, UniProt P54756)).
NEK4 (Homo sapiens, UniProt P51957) — remaining activity: 102%.
For AKT3 (Homo sapiens, UniProt Q9Y243): remaining activity read 100%.
For CSNK2A1 (Homo sapiens, UniProt P68400): remaining activity read 112%.
The remaining activity was 88.1% (PRKCI (Homo sapiens, UniProt P41743)).
BTK (Homo sapiens, UniProt Q06187) — remaining activity: 17.6%.
The remaining activity was 100% (STK38 (Homo sapiens, UniProt Q15208)).
It gave 10.8% for remaining activity (LYN (Homo sapiens, UniProt P07948)).

For quick reference, copied from above (sample 2):
It gave 100% for remaining binding (TAOK3 (Homo sapiens, UniProt Q9H2K8); cell-free assay).
For MAP2K4 (Homo sapiens, UniProt P45985); cell-free assay: remaining binding read 100%.
It gave 100% for remaining binding (CSNK1A1L (Homo sapiens, UniProt Q8N752); cell-free assay).
For CDKL1 (Homo sapiens, UniProt Q00532); binding: remaining binding read 100%.
The remaining binding was 100% (STK16 (Homo sapiens, UniProt O75716); cell-free assay).
It gave 100% for remaining binding (WEE1 (Homo sapiens, UniProt P30291); cell-free assay).
The remaining binding was 100% (STK11 (Homo sapiens, UniProt Q15831); cell-free assay).
The remaining binding was 100% (BMPR1B (Homo sapiens, UniProt O00238); cell-free assay).
